Results of several laboratories.
Numbered parts are unrelated; each lists some results of a single study.

Set 1 — technique: aptamer microarray, sandwich; form: DNA with 2'F-ANA; medium: in vitro; concentration: 200 nM; with: Cy3 exosite-II aptamer, 400 nM; direction: higher = stronger binding
Target: Prothrombin, mature alpha-thrombin (F2, Homo sapiens, UniProt P00734)
Notes: whole 15-mer aptamer, many near background
`GGTTGGTGTGGTTGG (2'F-ANA at 1 2 3 6 7 11 13 14)` — result for “mean fluorescence intensity”: 67.4 a.u.
`GGTTGGTGTGGTTGG (2'F-ANA at 1 3 4 5 6 8 9 10 11 13 14 15)`: “mean fluorescence intensity” 54 a.u.
`GGTTGGTGTGGTTGG (2'F-ANA at 1 2 3 5 7 8 10 11 12 13 15)` — result for “mean fluorescence intensity”: 125 a.u.

Set 2 — technique: RNA Bind-n-Seq; form: RNA; medium: in vitro; concentration: 20 nM; notes: 6-mer, flanks averaged, single round; with: 150 mM LiCl; reference: input library; direction: higher = stronger binding
Target: TAR DNA-binding protein 43, full length, His tag (TARDBP, Homo sapiens, UniProt Q13148, residues 1-414)
`UUCAGA` — result for “6-mer enrichment (R)”: 0.827.
`CAUAAG`: “6-mer enrichment (R)” 0.847.
`UUUGUC` — result for “6-mer enrichment (R)”: 1.1.

Mixed results
For `AGGGGGAA`, the E-score was -0.0422 (Sal-like protein 4, full length isoform B (SALL4, Homo sapiens, UniProt Q9UJQ4-2, residues 1-616); universal PBM; double-stranded DNA, one strand shown, in vitro; not given, 8-mer, flanks averaged, mean of replicates; higher = stronger binding).
`PhoQ, residues 284 288 289 292 302 303 GTAMQF` has a fold induction of 16.5 (PhoP, residues 12 14 15 18 19 NQCAL (Escherichia coli, UniProt P23836); Sort-seq, refers to: YFP reporter; E. coli; PhoQ-PhoP variant library, with: 10 µM Mg2+; reference: high Mg2+ state, higher = stronger signaling).
With `CAAATTAC` the E-score was -0.0453 (Histone acetyltransferase KAT6A, winged helix 1, GST fusion (KAT6A, Homo sapiens, UniProt Q92794, residues 1-85); protein binding microarray; double-stranded DNA, one strand shown, in vitro; not given, 8-mer, flanks averaged, mean of 2 arrays, mostly near background; reference: not given, higher = stronger binding).
For `CTTATTTC`, the E-score was 0.293 (Sal-like protein 4, full length isoform A (SALL4, Homo sapiens, UniProt Q9UJQ4, residues 1-1053); universal PBM; double-stranded DNA, one strand shown, in vitro; 600 nM, 8-mer, flanks averaged, mean of replicates; higher = stronger binding).

Some of these lines once more (set 2):
`UUUGUC` — result for “6-mer enrichment (R)”: 1.1.
